{"data": "Measurements of several laboratories", "note": "Every numbered part comes from another study and shows a few of its results, in no order. Positions count from the first letter of the parent shown."}
{"data": "Study 1", "target": "RING finger protein unkempt homolog, zinc fingers 1-6, GST-SBP tag (UNK, Homo sapiens, UniProt Q9C0B0, residues 30-357)", "method": "RNA Bind-n-Seq", "molecule type": "RNA", "sample": "in vitro", "concentration": "not given", "setting": "RNA with constant flanks, human-mouse chimeric sites, ends assumed", "baseline": "input RNA pool", "direction": "higher = stronger binding", "shared flanks, not repeated": "GGGAGUUCUACAGUCCGACGAUC … CAACAGAGGAUUGAGCAUCA", "Target sequence (chain)": "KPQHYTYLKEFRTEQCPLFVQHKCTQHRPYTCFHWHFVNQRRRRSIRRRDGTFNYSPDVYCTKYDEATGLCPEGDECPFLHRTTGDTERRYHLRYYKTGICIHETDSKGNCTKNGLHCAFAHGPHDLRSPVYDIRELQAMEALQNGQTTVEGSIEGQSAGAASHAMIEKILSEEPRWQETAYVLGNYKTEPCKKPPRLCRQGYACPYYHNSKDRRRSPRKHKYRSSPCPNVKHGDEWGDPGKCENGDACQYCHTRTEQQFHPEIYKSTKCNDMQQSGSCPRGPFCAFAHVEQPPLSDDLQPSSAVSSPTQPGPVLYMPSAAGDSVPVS"}
{"Sequence": "GCUCUUGGGAAUGUAAUCAGCGCCUUGGGGGACAAGAGCAAGAGAGCCACCCAUGUCCCCUAUAGAGACUCUAAGCUAACAAGACUAUUGCAGGAUUCCCUUGGGGGUAACAGCCAAACC", "bound/input enrichment": "0.204 ratio"}
{"Sequence": "GAAUCCUCCCGUGCAAAAUUUUGCAACCUGAAUGCAACAGCAGCAGCAUCUUAGUCACAGUAGGGUAGUUUUGGGGCUCUGUGGCCAGGGUUUUAUUCACAUGCAGGUUUGGAAAAUGUA", "bound/input enrichment": "1.88 ratio"}
{"Sequence": "GAUCAUGAACCACCAUCCAGAAAUGAAAUGAGAUUACCCAGACGAGCCAAAACAGCUAGCACUAGAAAAAGUAAACUUAACCUUGCAGAGUUCCUUAAUGAAGAUACAAGUUAAGAGAGC", "bound/input enrichment": "2.9 ratio"}
{"Sequence": "GGAUUCCGCUUCCGGUUCCGUUGGGCUCGGUUCUCUCCUGAGCUACGUGUCUCUACGCUCUCAAUCCGCCAUCCAACAAACAUGGAUCAGGUAAUGCUGCAGUUUGUGCCCAGCCGGCAG", "bound/input enrichment": "0.112 ratio"}
{"Sequence": "CUCGGCACCGGCACGCUUUACAUCGCGGAGAGCCGCCUGUCUUGGUUAGAUGGUUCGGGAUUAGGAUUCUCACUGGAAUACCCCACCAUUAGUUUACAUGCAUUAUCCAGGGAUCCAAAC", "bound/input enrichment": "2.05 ratio"}
{"Sequence": "ACCUCCCCCUCCCGCCUGCUUUUUGAAAAGAAAGAAAGAAAGUUUUUGGCGUUUCUUUUCCUUCCCCAUACAAAGUGAUUACAGUUUCCCCCGCAAGGGUCUAUCGAAGGGCUUGACGGA", "bound/input enrichment": "0.436 ratio"}
{"Sequence": "CUCUUUGAAUCAUUCAAGAGUUUUGAAGGUCUCUUUUAUUUUCUGGGAUCCAUUGUUAACUUUAGCCAGGACCCAGAUGUGCACUUUAAAUAUAUUCAGGCGGCUUGCAAGACUGGGCAA", "bound/input enrichment": "0.48 ratio"}
{"Sequence": "AGAGAUAAGACAUCCAGGAACAUGCGAGGCUCCCGGAUGAAUGGACUGCCUAGCCCCACUCACAGCGCCCACUGUAGCUUCUACCGAACCAGAACCUUGCAGGCAUUGAGUAAUGAGAAG", "bound/input enrichment": "0.136 ratio"}
{"Sequence": "CACGUGUCUGCAGUGCUUGAUGUGGACUACUCUCCCACUGGGAAGGAAUUUGUGUCUGCCAGCUUUGAUAAAUCUAUUAGAAUCUUUCCUGUGGACAAGAGCCGAAGCAGGGAAGUGUAU", "bound/input enrichment": "0.545 ratio"}
{"Sequence": "UGACAAGGGCACUGCAGAGCCAUGCCUUUCCUUGACAUCCAGAAAAGGCUGGGCAUCAGCCUGGACCGGCACUUUAUGUUCCUAAGCGCAGAACAGCCCUAUAAGAACGCCGCUCGGUGC", "bound/input enrichment": "0.0517 ratio"}
{"Sequence": "UCUUAACUUAUUCAUUUAACUUAUUUUUAUAGCUAGAUAAAUAUUGUUAGUCUUAGACAAUAGCUCACAUUUUUUGAGAAGCAUGCCCUCCCUAUCCAUUUGUCUUAUAACAUGACCCAG", "bound/input enrichment": "7.83 ratio"}
{"data": "Study 2", "target": "Sal-like protein 4, full length isoform B (SALL4, Homo sapiens, UniProt Q9UJQ4-2, residues 1-616)", "method": "universal PBM", "molecule type": "double-stranded DNA, one strand shown", "sample": "in vitro", "concentration": "not given", "setting": "8-mer, flanks averaged, mean of replicates", "direction": "higher = stronger binding"}
{"Sequence": "CGAGTAAC", "E-score": 0.0319}
{"Sequence": "ATGATGCA", "E-score": 0.232}
{"Sequence": "TAGTAGAA", "E-score": 0.112}
{"Sequence": "GATTATAA", "E-score": 0.331}
{"Sequence": "ACTCACGC", "E-score": -0.215}
{"Sequence": "TAGGATAA", "E-score": 0.154}
{"Sequence": "TGACGGCA", "E-score": -0.131}
{"Sequence": "CCTAGTAA", "E-score": 0.0114}
{"Sequence": "CCTTTCCA", "E-score": -0.0224}
{"Sequence": "AAATTTAG", "E-score": 0.274}
{"Sequence": "AGGTTTTC", "E-score": 0.0959}
{"Sequence": "CTACGAAA", "E-score": 0.0751}
{"Sequence": "GTCTTGAA", "E-score": 0.0697}
{"Sequence": "CTCATCTA", "E-score": 0.0754}
{"Sequence": "AAGCTCGT", "E-score": -0.144}
{"Sequence": "CTGATAAA", "E-score": 0.209}
{"Sequence": "AAGTTGAG", "E-score": 0.0105}
{"Sequence": "GATTCACC", "E-score": -0.222}
{"Sequence": "GTATCTAA", "E-score": 0.272}
{"Sequence": "AGAGAGTC", "E-score": -0.0986}
{"Sequence": "CCCCGCCC", "E-score": -0.105}
{"data": "Study 3", "target": "Fragile X messenger ribonucleoprotein 1, C-terminal low-complexity region (Fmr1, Mus musculus, UniProt P35922)", "method": "RNA Bind-n-Seq", "molecule type": "RNA", "sample": "in vitro", "concentration": "200 nM", "setting": "whole 134-nt RNA, ends assumed", "with": "150 mM LiCl", "baseline": "input library", "direction": "higher = stronger binding", "library": "7-deaza-guanosine replaces G", "shared flanks, not repeated": "GGGAGUUCUACAGUCCGACGAUC … UGGAAUUCUCGGGUGUCAAGG"}
{"Sequence": "CCUGUGCUACACAUCGUAUGUACCGAAUCGGGGUUUUUGGGGAAAGGGGUUUUUUUGGGGAAAGUAUUAUGUUACGCCGUUCGGAUCUGC", "log2 enrichment": -0.486}
{"Sequence": "AAGUCCUGUGCUACACAUCGUAUGUACCGAAUCGGGAAAGGGAAAGGGGAAAGGGGAAAGUAUUAUGUUACGCCGUUCGGAUCUGCACUU", "log2 enrichment": 0.274}
{"Sequence": "UGAAGCGAGAAGCUGCCCUACCCCCAGUGAGCCCCCUGAAGGCGGCUCUCUCUGAGGAGGAGUUAGAGAAGAAAUCCAAGGCUAUCAUUG", "log2 enrichment": -0.372}
{"Sequence": "UCAAGUCCUGUGCUACACAUCGUAUGUACCGAAUCGGGAAAGGGAGGGAAAGGGAAAGUAUUAUGUUACGCCGUUCGGAUCUGCACUUCC", "log2 enrichment": -1.28}
{"Sequence": "CCUGUGCUACACAUCGUAUGUACCGAAUCGGGAAAAAAGGGGAAAAAAGGGGAAAAAAGGGAAAGUAUUAUGUUACGCCGUUCGGAUCUG", "log2 enrichment": 0.397}
{"Sequence": "CACAUACAACACGCACCCACACAGACACAGAGGGAAGGGGUUGGGAUGGGGACAGGGUGCACAGCAGGGCGGGGUAGGACCCCAGCCCCU", "log2 enrichment": 0.0381}
{"Sequence": "CCUCACCACUCCUUUCUCUUUCAUUCAGUUCCGCUCAGUGGACGAGACUACCCAGGCUAUGGCCUUUGAUGGCAUCAUCUUCCAGGGCCA", "log2 enrichment": 1.05}
{"Sequence": "CUCAAGUCCUGUGCUACACAUCGUAUGUACCGAAUCGGGUUUGGGAGGGAGGGAAAGUAUUAUGUUACGCCGUUCGGAUCUGCACUUCCA", "log2 enrichment": -0.548}
{"Sequence": "UGUGCUACACAUCGUAUGUACCGAAUCGGAAAAAAAGGGGAAAAAAAGGGGAAAAAAAGGGGAAAGUAUUAUGUUACGCCGUUCGGAUCU", "log2 enrichment": 0.476}
{"Sequence": "ACCAUGCAGGUGGGCAUCUUUGGGAAGUGGGGCAAGGGGGGGAUAGGGAGGGGGGUAACACUUUGGGAACAGGUGGUCCAAAGUCGUUUC", "log2 enrichment": 1.23}
{"Sequence": "CAAGUCCUGUGCUACACAUCGUAUGUACCGAAUCGGGAGGGAAAGGGAAAAAGGGAAAGUAUUAUGUUACGCCGUUCGGAUCUGCACUUC", "log2 enrichment": 0.00984}
{"data": "Study 4", "target": "PABPC1L2, full length, GST fusion (mouse, UniProt A0ABA7IW68)", "method": "RNAcompete", "molecule type": "RNA", "sample": "in vitro", "concentration": "20 nM", "setting": "7-mer, probes averaged, single round", "baseline": "mean of 7-mers", "direction": "higher = stronger binding", "Construct (chain)": "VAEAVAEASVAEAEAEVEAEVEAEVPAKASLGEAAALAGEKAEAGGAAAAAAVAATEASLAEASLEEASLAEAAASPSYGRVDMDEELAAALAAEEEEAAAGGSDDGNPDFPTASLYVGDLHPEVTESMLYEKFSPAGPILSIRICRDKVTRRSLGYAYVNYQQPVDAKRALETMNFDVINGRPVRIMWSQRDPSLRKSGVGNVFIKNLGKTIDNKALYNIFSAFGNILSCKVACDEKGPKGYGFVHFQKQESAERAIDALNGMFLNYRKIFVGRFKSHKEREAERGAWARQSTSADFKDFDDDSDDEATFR"}
{"Sequence": "GUGUGAA", "7-mer Z-score": 0.0261}
{"Sequence": "CCGCACA", "7-mer Z-score": -0.248}
{"Sequence": "AUACCCG", "7-mer Z-score": -0.211}
{"Sequence": "CUGAUAU", "7-mer Z-score": -0.175}
{"Sequence": "CUUGGGC", "7-mer Z-score": -0.0754}
{"Sequence": "GAUCUCC", "7-mer Z-score": -0.394}
{"Sequence": "GCCGUCU", "7-mer Z-score": -0.269}
{"Sequence": "CAGUCCG", "7-mer Z-score": -0.275}
{"Sequence": "UAAGAUU", "7-mer Z-score": -0.0826}
{"Sequence": "CAGAAUC", "7-mer Z-score": -0.00833}
{"Sequence": "ACCGCGG", "7-mer Z-score": -0.17}
{"Sequence": "ACCGCUG", "7-mer Z-score": -0.315}
{"Sequence": "GGUGGGU", "7-mer Z-score": 0.095}
{"Sequence": "UACCCUC", "7-mer Z-score": -0.398}
{"Sequence": "UCCCGAG", "7-mer Z-score": -0.235}
{"Sequence": "AGCCACC", "7-mer Z-score": -0.0935}
{"Sequence": "CACGGAC", "7-mer Z-score": 0.0533}
{"Sequence": "UGACGCA", "7-mer Z-score": -0.112}
{"Sequence": "GUUGUGU", "7-mer Z-score": -0.472}
{"Sequence": "GAGCACG", "7-mer Z-score": -0.226}
{"Sequence": "CCUAUUA", "7-mer Z-score": -0.289}
{"Sequence": "GAAAUAU", "7-mer Z-score": 1.19}
{"Sequence": "UCCUCGC", "7-mer Z-score": -0.494}
{"data": "Study 5", "target": "CCNB2, cyclin fold, Cln2 fusion (human)", "method": "yeast growth competition, sequencing", "sample": "yeast", "setting": "strong parent motif", "baseline": "not given", "direction": "higher = stronger binding", "starting sequence": "E2F1 docking peptide (human); PPVKRRLDFETDH; partner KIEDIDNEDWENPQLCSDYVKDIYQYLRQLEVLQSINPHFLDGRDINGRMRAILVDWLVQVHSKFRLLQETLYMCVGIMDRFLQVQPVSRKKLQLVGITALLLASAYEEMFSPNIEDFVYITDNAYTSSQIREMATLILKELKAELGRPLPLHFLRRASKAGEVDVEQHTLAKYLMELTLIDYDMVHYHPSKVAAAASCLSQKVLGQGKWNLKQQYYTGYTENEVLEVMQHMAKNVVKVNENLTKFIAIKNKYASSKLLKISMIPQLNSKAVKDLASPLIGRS"}
{"Substitution": "E10T", "normalised enrichment score": 3.1}
{"Substitution": "D8P", "normalised enrichment score": 0.794}
{"Substitution": "K4R", "normalised enrichment score": 4.42}
{"Substitution": "R5L", "normalised enrichment score": 1.63}
{"Substitution": "R5F", "normalised enrichment score": 0.432}
{"Substitution": "R5M", "normalised enrichment score": 2.27}
{"Substitution": "V3C", "normalised enrichment score": 2.83}
{"Substitution": "D12Y", "normalised enrichment score": 3.58}
{"Substitution": "E10N", "normalised enrichment score": 3.24}
{"Substitution": "F9N", "normalised enrichment score": 0.148}
{"Substitution": "V3Q", "normalised enrichment score": 0.461}
{"Substitution": "V3L", "normalised enrichment score": 3.19}
{"Substitution": "F9T", "normalised enrichment score": 0.0618}
{"Substitution": "L7G", "normalised enrichment score": -0.219}
{"Substitution": "K4T", "normalised enrichment score": 1.14}
{"Substitution": "R6F", "normalised enrichment score": 1.53}
{"Substitution": "L7A", "normalised enrichment score": 0.389}
{"Substitution": "F9R", "normalised enrichment score": 0.212}
{"Substitution": "E10G", "normalised enrichment score": 3.58}
{"Substitution": "V3T", "normalised enrichment score": 1.91}
{"Substitution": "K4V", "normalised enrichment score": 2.94}
{"Substitution": "D12T", "normalised enrichment score": 3.41}
